Assay results pooled from the literature.
Parts stem from different laboratories: compare values within a part only.

Set 1
Cell line: HEK-293T
Read-out: pseudovirus infection
Method: FDA-approved drug library screen
Organism: VSV pseudotyped with SARS-CoV-2 spike
Tested at: 10 µM
Time: 16 h
Baseline: vehicle-treated
SMILES | GFP-positive cells [%]
Cc1onc(-c2c(Cl)cccc2Cl)c1C(=O)N[C@@H]1C(=O)N2[C@@H]1SC(C)(C)[C@@H]2C(=O)O | 98.5
NCC1(CC(=O)O)CCCCC1 | 87.3
C[C@@H]1C/C=C/C=C/C=C/C=C/[C@H](O[C@@H]2O[C@H](C)[C@@H](O)[C@H](N)[C@@H]2O)C[C@@H]2O[C@](O)(C[C@@H](O)C[C@H]3O[C@@H]3/C=C/C(=O)O1)C[C@H](O)[C@H]2C(=O)O | 86
CC(NC(C)(C)C)C(=O)c1cccc(Cl)c1 (stereo not shown) | 77

Set 2
Target: Replicase polyprotein 1ab, polymerase (rep, Severe acute respiratory syndrome coronavirus 2, UniProt P0DTD1)
Read-out: enzyme activity
Mode: inhibitor
Tested at: 20 µM
Compound | inhibition
COC(=O)C1=C(C)NC(C)=C([N+](=O)[O-])[C@@H]1c1ccccc1C(F)(F)F (racemic) | -21%
CCCCCCCCOc1ccccc1C(=O)Nc1ccc(C(=O)OCC[N+](C)(CC)CC)cc1 | 1.57%
O=C(O)CSc1nnc(Br)n1-c1ccc(C2CC2)c2ccccc12 | 4.07%
Cn1c(N2CCCCS2(=O)=O)nc(C(=O)NCc2ccc(F)cc2)c(O)c1=O | -0.99%
CC(=O)[C@H]1CC[C@H]2[C@@H]3CC[C@H]4C[C@](C)(O)CC[C@]4(C)[C@H]3CC[C@]12C | 0.91%
N#Cc1ccc2[nH]cc(CCCCN3CCN(c4ccc5oc(C(N)=O)cc5c4)CC3)c2c1 | 1.54%
CCOC(=O)CN1CCN(C(=O)/C=C/c2cc(OC)c(OC)c(OC)c2)CC1 | -1.72%
C[C@]12CCC(=NOCCN)C[C@@H]1C(=O)C[C@@H]1[C@@H]2CC[C@]2(C)C(=O)CC[C@@H]12 | -5.12%
O[C@H]1[C@H](O)[C@@H](O)[C@H](O)[C@@H](O)[C@H]1O | 15.6%
O=C(c1ccc(F)cc1)C1CCN(CCCCc2ccccc2)CC1 | -9.03%
COc1cccc(OCCCN)c1-c1cc(Nc2cnc(C#N)cn2)n[nH]1 | 0.07%
N#Cc1cccc(-c2c[nH]c3ncnc(N4CCOCC4)c23)c1 | -2.72%
O=C(c1cc2ccccc2o1)N1CCN(Cc2ccccc2)CC1 | 4.5%
Cc1c(C)c2c(c(C)c1O)CCC(C)(C(=O)O)O2 (stereo not shown) | 37.2%
Cc1cccc(C)c1NC(=O)CC12CCCN1CCC2 | -3.14%
COc1ccc(C(=O)c2c(C)n(CCN3CCOCC3)c3ccccc23)cc1 | 4.14%
O=C(c1ccc(Nc2nccc(-c3cc4ccccc4s3)n2)cc1)N1CCC(N2CCCC2)CC1 | 15%
C[C@]12CC[C@H](O)C[C@@H]1CC[C@@H]1[C@@H]2CC[C@]2(C)C(=O)CC[C@@H]12 | -5.46%

Set 3
Target: Replicase polyprotein 1ab, main protease (rep, Severe acute respiratory syndrome coronavirus 2, UniProt P0DTD1)
Read-out: enzyme activity
Mode: inhibitor
Tested at: 20 µM
Notes: hit confirmation
SMILES | inhibition [%]
C=CCN1CCc2cc(O)c(O)cc2C(c2ccccc2)C1 (stereo not shown) | 59.1
O=[N+]([O-])c1ccc2c(c1)S(=O)(=O)C=C2 | 6.2
NC(=S)NN=Cc1ccncc1 | 1.4
CC1=C(C(=O)O)N2C(=O)[C@@H](NC(=O)[C@H](N)C3=CCC=CC3)C2SC1 (stereo partly shown) | -8.9
Clc1ccc(C(OCCN2CCCCC2)c2ccccc2)cc1 (stereo not shown) | -19.5

Set 4
Target: Ras GTPase-activating protein-binding protein 1, full length (G3BP1, Homo sapiens, UniProt Q13283)
Chain of UniProt Q13283 (whole entry, looked up): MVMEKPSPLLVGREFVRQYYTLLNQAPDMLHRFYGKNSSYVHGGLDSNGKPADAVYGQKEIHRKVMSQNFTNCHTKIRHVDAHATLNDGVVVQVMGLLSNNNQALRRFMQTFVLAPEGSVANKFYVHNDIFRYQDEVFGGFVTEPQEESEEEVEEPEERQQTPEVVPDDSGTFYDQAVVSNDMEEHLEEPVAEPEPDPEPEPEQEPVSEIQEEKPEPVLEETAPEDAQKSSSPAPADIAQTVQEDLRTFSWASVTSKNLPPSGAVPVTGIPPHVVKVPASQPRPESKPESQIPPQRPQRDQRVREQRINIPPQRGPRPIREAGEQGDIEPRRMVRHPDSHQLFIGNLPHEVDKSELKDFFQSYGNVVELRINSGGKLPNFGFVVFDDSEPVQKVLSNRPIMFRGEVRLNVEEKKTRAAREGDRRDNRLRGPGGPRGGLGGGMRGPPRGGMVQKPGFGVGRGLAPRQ
Method: RNA Bind-n-Seq
Molecule type: RNA
Matrix: in vitro
Tested at: 200 nM
Notes: whole 134-nt RNA, ends assumed
Together with: 150 mM KCl
Baseline: input library
Direction: higher = stronger binding
All sequences stand within: GGGAGUUCUACAGUCCGACGAUC … UGGAAUUCUCGGGUGUCAAGG
Oligonucleotide | log2 enrichment
CCUGUGCUACACAUCGUAUGUACCGAAUCGGCCCCCCCGGGCCCCCCCGGCCCCCCCGGGAAAGUAUUAUGUUACGCCGUUCGGAUCUGC | 0.0297
CCUGUGCUACACAUCGUAUGUACCGAAUCAAACCCCCCCAAAUUUUUAAACCCCCCCAAAAAAGUAUUAUGUUACGCCGUUCGGAUCUGC | 0.951
AGUCCUGUGCUACACAUCGUAUGUACCGAAUCGGCCCCCGGGCCCCCGGCCCCCGGGAAAGUAUUAUGUUACGCCGUUCGGAUCUGCACU | -0.859
UUAGAAGAAUUUGGAAGGCCUUAAAUAUAGUAGCUUAGUUUGAAAAAUGUGAAGGACUUUCGUAACGGAAGUAAUUCAAGAUCAAGAGUA | -2.33
CUGUGCUACACAUCGUAUGUACCGAAUCGGGAAAAAAAGGGUUUUUUUGGGUUUUUUUGGGAAAGUAUUAUGUUACGCCGUUCGGAUCUG | -1.39
AGUCCUGUGCUACACAUCGUAUGUACCGAAUCGGGAAAAAAAGGGAAAGGGAAAGGGAAAGUAUUAUGUUACGCCGUUCGGAUCUGCACU | -0.124
AAGUCCUGUGCUACACAUCGUAUGUACCGAAUCGGGUUUUUUUGGGAAAGGGUGGGAAAGUAUUAUGUUACGCCGUUCGGAUCUGCACUU | 0.11
UUCCUCAAGUCCUGUGCUACACAUCGUAUGUACCGAAUCGGAGGUGGAGGAAAGUAUUAUGUUACGCCGUUCGGAUCUGCACUUCCAGCA | -0.985

Set 5
Target: Interferon regulatory factor 5, full length, phosphomimetic (IRF5, Homo sapiens, UniProt Q13568-2, residues 1-514, K96S/S451D/S453D/S456D/S462D)
Method: protein-binding microarray
Molecule type: double-stranded DNA, one strand shown
Matrix: in vitro
Tested at: 250 nM
Notes: 60-bp whole probe
Together with: salmon DNA 0.4 mg/ml
Baseline: random background probes
Direction: higher = stronger binding
All sequences stand within: GCCTAGCAC … GTCTTGATTCGCTTGACGCTGCTG
Oligonucleotide | log fluorescence [z-score]
GACGGGTTCCTACTGCTGACGTGCTAG | -0.352
CTGGCTTTGACTCTTTCTGTGTGCTAG | 0.718
TTAGGTATCGGGTATCGGTTAGTGCTA | 6.59
TCATCTTATCCTATCAGACTGTGCTAG | 0.272
GCCGGTATCGGTCTCGGGACGTGCTAG | 6.35
CTCTGGTTCTTGCTTGGTGTCGTGCTA | -0.3
TCATCTCTCTTAAATAGGACTGTGCTA | 0.613
GACGATTTCGGGTTTCGACACGTGCTA | 5.85

Repeated from above (set 2):
Compound | inhibition
CCOC(=O)CN1CCN(C(=O)/C=C/c2cc(OC)c(OC)c(OC)c2)CC1 | -1.72%
O=C(c1ccc(Nc2nccc(-c3cc4ccccc4s3)n2)cc1)N1CCC(N2CCCC2)CC1 | 15%
